Results pooled from the literature.
Each numbered part is a random draw from the data of one study; scales do not carry over between parts.

Sample 1
Target: Centromere-binding protein 1, full length, His-tagged (CBF1, Saccharomyces cerevisiae, UniProt P17106, residues 1-351)
Chain of UniProt P17106 (whole entry, looked up): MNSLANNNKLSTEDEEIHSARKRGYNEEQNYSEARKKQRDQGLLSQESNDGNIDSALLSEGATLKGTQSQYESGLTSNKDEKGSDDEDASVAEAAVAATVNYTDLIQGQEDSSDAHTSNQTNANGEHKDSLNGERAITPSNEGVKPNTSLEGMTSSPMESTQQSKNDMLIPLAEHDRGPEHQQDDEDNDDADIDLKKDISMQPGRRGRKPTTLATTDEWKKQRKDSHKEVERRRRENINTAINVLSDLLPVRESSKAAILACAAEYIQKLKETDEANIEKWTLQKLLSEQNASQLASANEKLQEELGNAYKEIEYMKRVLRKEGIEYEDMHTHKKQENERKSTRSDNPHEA
Technique: competition protein-binding microarray
Form: double-stranded DNA, one strand shown
Sample: in vitro
Tested at: 2 µM
Notes: whole 60-bp probe, lowest competitor level
With: Pho4 competitor, 0.05 µM
Direction: higher = stronger binding
Measurement: fluorescence intensity
Constant ends, left off below: … GTCTTGATTCGCTTGACGCTGCTG
CCAATTTATTGACATCACCTGGAATGCAGGCGGTGG: 104 a.u.
GCGCAACAAATACCTGATGTGACGCCTACCCTTTGG: 63.9 a.u.
TGCGCAACAACTTGTCACCCGACTTTATGTCTAGAA: 81.4 a.u.
CGTCCTAGCGATTGAAAGGTGGGTGCCATGAGGAAG: 59.6 a.u.
TAGTCTGCGGAGAGCAACGTGCAAAAACTAAAGGTA: 112 a.u.
CTTTCCCGATCTTGTGCGGTGGGTGTAGCACATTTG: 62 a.u.
AAAGCGGTAATTTGGTAAGTGGGTGCAGATATCTAT: 73.4 a.u.
CCGGTGTTACCCAAGCTCGTGTTTTCACTGGTAACA: 71.6 a.u.
CTTTCCCGATCTTTTCACGTGGTATTAGCACATTTG: 875 a.u.
AAGTTAAAACCTGTTGTCGTGGGTAAATATGATAGT: 72.1 a.u.
CTAACGAAGGTTTTTCACGTGCGATACAAGCCAAGT: 766 a.u.
CATACCCAACCTTTTCACGTGGTATAAGATATTTGT: 1180 a.u.
AATCGCTCATTATCTTCGCTGCCATTTTCACCCTGA: 62.8 a.u.
TTGCTTGCAAACCGTCACATGCTTATAATCAACTTT: 825 a.u.
GTAAGTAATGTACTTCACGTGTGTTCCACTGGTAAT: 657 a.u.
AAATTACTAAGTTGGGAAGTGGGTGACGCCGTATGA: 67 a.u.
CTTTCCCGATCTTGACAAGTGGGTGTAGCACATTTG: 71.6 a.u.
CGCGAACGAATCCATCACGCAGCCTCGCCTTGAGAC: 74.9 a.u.
TTCTTTAGAGGTTCACACGTAGTAAAAGAAAAAAAA: 80.4 a.u.

Sample 2
Target: Sal-like protein 4, full length isoform A (SALL4, Homo sapiens, UniProt Q9UJQ4, residues 1-1053)
Chain of UniProt Q9UJQ4 (whole entry, looked up): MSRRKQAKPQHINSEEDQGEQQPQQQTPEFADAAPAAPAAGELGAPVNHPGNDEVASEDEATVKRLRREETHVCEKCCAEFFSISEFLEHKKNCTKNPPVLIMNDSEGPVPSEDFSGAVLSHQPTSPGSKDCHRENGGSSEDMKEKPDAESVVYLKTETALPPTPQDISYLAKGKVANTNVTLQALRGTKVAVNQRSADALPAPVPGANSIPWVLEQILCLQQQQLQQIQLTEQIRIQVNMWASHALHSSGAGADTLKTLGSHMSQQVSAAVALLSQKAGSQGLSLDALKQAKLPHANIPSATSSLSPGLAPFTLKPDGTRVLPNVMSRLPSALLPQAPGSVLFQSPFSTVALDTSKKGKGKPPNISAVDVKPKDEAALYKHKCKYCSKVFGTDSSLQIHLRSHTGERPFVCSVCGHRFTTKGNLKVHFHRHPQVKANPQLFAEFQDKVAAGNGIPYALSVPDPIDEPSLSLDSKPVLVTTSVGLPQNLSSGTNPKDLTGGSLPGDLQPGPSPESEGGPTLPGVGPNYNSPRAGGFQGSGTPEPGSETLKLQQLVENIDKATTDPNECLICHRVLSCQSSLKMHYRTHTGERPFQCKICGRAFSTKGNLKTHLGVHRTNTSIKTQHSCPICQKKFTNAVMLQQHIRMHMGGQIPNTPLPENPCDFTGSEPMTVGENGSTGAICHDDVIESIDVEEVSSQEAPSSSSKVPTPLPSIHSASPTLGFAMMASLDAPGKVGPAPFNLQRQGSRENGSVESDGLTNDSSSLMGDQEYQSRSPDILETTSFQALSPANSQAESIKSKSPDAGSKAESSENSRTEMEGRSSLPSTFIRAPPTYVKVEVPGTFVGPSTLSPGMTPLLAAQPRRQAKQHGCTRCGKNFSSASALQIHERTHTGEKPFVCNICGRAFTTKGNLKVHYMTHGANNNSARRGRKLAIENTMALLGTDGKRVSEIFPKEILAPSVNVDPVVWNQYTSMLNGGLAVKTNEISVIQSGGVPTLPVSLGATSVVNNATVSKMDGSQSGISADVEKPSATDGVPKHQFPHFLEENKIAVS
Technique: universal PBM
Form: double-stranded DNA, one strand shown
Sample: in vitro
Tested at: 600 nM
Notes: 8-mer, flanks averaged, mean of replicates
Direction: higher = stronger binding
Measurement: E-score
CAACGTTG: 0.197
CCGAGTCC: -0.162
CCTGGCAG: -0.181
AAACTTCA: 0.242
ATCCTCAT: -0.0239
ATGTCAGG: 0.0259
GATCCGTA: -0.172
CATCACCA: 0.0914
AGAAGTTC: -0.126
AACCGGAA: -0.0787
ACAGCAAA: 0.205
CCCGTCTC: -0.375
AAGAAACT: -0.0185
GTCCGGGA: -0.199
AAGTTATT: 0.325
GACCACGA: -0.227
CCCGGTGA: -0.355
GAGATTAC: -0.0488
CAGCTTTA: 0.0606

Sample 3
Target: RING finger protein unkempt homolog, zinc fingers 1-6, GST-SBP tag (UNK, Homo sapiens, UniProt Q9C0B0, residues 30-357)
Technique: RNA Bind-n-Seq
Form: RNA
Sample: in vitro
Tested at: not given
Notes: RNA with constant flanks, human and mouse sites, ends assumed
Relative to: input RNA pool
Direction: higher = stronger binding
Measurement: bound/input enrichment
Constant ends, left off below: GGGAGUUCUACAGUCCGACGAUC … CAACAGAGGAUUGAGCAUCA
Construct (chain): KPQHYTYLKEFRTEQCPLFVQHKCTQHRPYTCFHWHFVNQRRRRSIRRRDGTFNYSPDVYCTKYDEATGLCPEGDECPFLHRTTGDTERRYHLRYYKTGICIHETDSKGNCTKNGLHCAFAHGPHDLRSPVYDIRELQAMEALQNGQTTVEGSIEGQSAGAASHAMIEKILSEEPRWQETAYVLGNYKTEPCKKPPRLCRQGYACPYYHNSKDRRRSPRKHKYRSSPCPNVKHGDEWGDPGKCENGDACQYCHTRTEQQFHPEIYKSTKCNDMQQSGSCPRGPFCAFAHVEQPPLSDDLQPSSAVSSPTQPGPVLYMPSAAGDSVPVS
UGCACACAUUGGUAGACUGUUAUCAUUUGUGGUGGGAACCCAUGUAAAUAAGUAGACUGUAAAGAGAGACUAUCUUGCAUUAUGACUGUAUGAAUUUCUAAGUGCUGUUUGAUUGGGUUU: 0.467 ratio
GUAUUUGUCCCAUUUUUGUUUUUAAAUGUAUUUUUAUAAGAUGUAUACAUGUGUAUUUGUAAUAGAUUUUUUGAUUAUAUAAUACUGAAACAUCUCUCAAUAUUAUGAAAAAUGUUAAAA: 0.878 ratio
UAAUGUAAACUUUCCAGUGGAUUGUUACUUACACACCUGAUACUAAGAAUUAAGUAGAAGAUAGAUUUUUAUGGACACUCUAGCUGUAUUGGAGCACUACUGGAUUUUAUAUUUCAGUCA: 0.813 ratio
UUCAUUCAUGCUAAUGUUGACAUUGACUUAAUUAUCACAGAAGAACCUGAAAUUGGCAAUAUAGAAAAACCUGUAGAAAUUUUUCAUAUAAUUGAGCAUUUUUGUCUUGGUAGAAGACGC: 1.17 ratio
UGGGUGUGUUCAUACCAGAAGCUCUCAUCACAGUCACACCCAUUUCGUGGCAGCUGUGGAUCAUUUUACGUAUUUUUAGUCAGGCUCAAAGAAGUGACUCAGGUUUGUCAAGUUCUGUUC: 1.8 ratio
CUACAGGAUGUUGCAGACUCAUUUAAGAAAAUUUUUGAUGAAGCAAAAACAGCCCAAGAAAAAGAUUCAUUGAUAACACCUCAUGUUUCUCAUCUGAGCACCCCUAGAGAGUCACCAUGU: 0.234 ratio
AUUACUUCCAUUCCUGAACUUGCUGACUACAUUAAAGUUUUCAAGCCAAAAAAGCUGACUCUGAAAGGUUACAAACAAUAUUGGUGCACCUUCAAAGACACAUCCAUUUCUUGUUAUAAG: 0.0985 ratio
UCAGUUAAGUUGUCAGAAAACAUGAAGGCUUCAUCCUUUAAAAAACUACAGAAGUUUUAUAUAGACCCAUAUAAGCUGCUGCCACUGCAGAGGUUUUUACCUCGACCUCCAGGUGAGAAA: 0.268 ratio

Sample 4
Target: RNA binding protein fox-1 homolog 2, RRM domain, GST-SBP tag (RBFOX2, Homo sapiens, UniProt O43251-10, residues 100-194)
Technique: RNA Bind-n-Seq
Form: RNA
Sample: in vitro
Tested at: 365 nM
Notes: natural RNA segment, single round, ends assumed
Relative to: no-protein control
Direction: higher = stronger binding
Measurement: RBNS enrichment (R)
Constant ends, left off below: GGGAGUUCUACAGUCCGACGAUC … UGGAAUUCUCGGGUGCCAA
Construct (chain): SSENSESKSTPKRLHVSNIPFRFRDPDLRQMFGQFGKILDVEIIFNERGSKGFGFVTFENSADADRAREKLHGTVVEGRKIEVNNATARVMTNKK
GGCCCCUCUUUCUUGGGGACCCAGUAUGUCCUCUCCUCUAGACCCAGACAUACAGUUAUAACCGUCUGUCCUAGCCCCUCCCUAAUCCCUGGCCCUCCCAGCUGUCUGGG: 0.248
UGGAUCUGAAAGCAACAAUCGCCAGCCCCUACUGUCGUACCAGUAGAAACCUCAUCUUGGGUACAAGGAAGGAUAGUUCUGUCACUUUAACUUGUUUCAAUGCCUACUUU: 0.598
UGCCUCAGAUCAGCCUGCGACUGCAAGAUUCUUACUGCAGUAGAGAACUCUUUUUCUCCCUUGUACUUUUUUUUGACCUGGCAUCUUUUUAUAGGGAAAAAUGGCCUUUG: 1.54
UUUACAUUUGAAUGUUCACAGUUUUCUCUCAGAGAAGUGCCAGACAUUGUUUUGUGCUUUUGAAGAAGUUUUAUUUAUAUGCAUUAUUUUUAUUGUUUUUACUUUGACUG: 0.439
ACUCUGGGGGACUCUGUUUCAAGGGGAAAAAAAGAACAGAGUCUGACUGCUUGGCUACGUACAGUAUAAGUAUUUCCUUUCUGUGACAUUGUGACAUACAAUUUAAACAC: 0.599
UAGGGUGACAGCAACCAAGGAUUAAGUAGUCAGUACACCAAGUUCUGGUCUGCUCAUGCUUCAUUGUCCAGAAAGCAGCAGGAAAUUGUAGUUCCGUUGUCAUCAAGCAG: 0.287
ACAGUGGCUGGAGAGAAGCAGAUCUGUGCAACGUGCAGGGCAAGCCAGUGGCGUGGCCUCUGCCUCUAAGCGCUGAGCAUUGGGCCCCUUCCCCACCAGACCUUUGUAGC: 0.449
UCCAGCCUCUGGCUUGAGAACUUACUAAAGGCACUUCCUUCCUGUUAAACCCCUGUUAACUCUCCAUAAAUUUGGUGAUUCUCUGCUAGGCCUAAGAUUUUGAGUUAACA: 0.451
